# Assay results collected from several papers.
# Each line is one published result; not all experiments were run side by side.
SMILES,organism,assay,test system,setting,MIC
OC(Cn1cncn1)(Cn1cncn1)c1ccc(F)cc1F,Cryptococcus neoformans,,"138, RPMI 1640","24 h, 35 °C",25 µM
O/N=c1\cc2n(-c3ccc(Cl)cc3)c3ccccc3nc-2cc1Nc1ccc(Cl)cc1,Neisseria meningitidis,bacterial growth,ATCC 13077,24 h,> 30 µM
Cc1ncc([N+](=O)[O-])n1CCO,Clostridioides difficile,agar dilution anaerobic,3584,48 h,0.5 µg/mL
N=C(N)c1ccc(OCc2cc(Br)cc(COc3ccc(C(=N)N)cc3)c2)cc1,Escherichia coli,,552100,"in combination, checkerboard, added: rifampicin",6.25 µg/mL
CCCCCCCCCC(=O)N[C@@H](Cc1c[nH]c2ccccc12)C(=O)N[C@H](CC(N)=O)C(=O)N[C@@H](CC(=O)O)C(=O)N[C@@H]1C(=O)NCC(=O)N[C@@H](CCCN)C(=O)N[C@@H](CC(=O)O)C(=O)N[C@H](C)C(=O)N[C@@H](CC(=O)O)C(=O)NCC(=O)N[C@H](CO)C(=O)N[C@@H]([C@H](C)CC(=O)O)C(=O)N[C@@H](CC(=O)c2ccccc2N)C(=O)O[C@@H]1C,Staphylococcus aureus,,SH1000,"added: lysophosphatidylethanolamine, molar ratio 2",1 µg/mL
Nc1[nH]c(=O)ncc1F,Cryptococcus neoformans,EUCAST broth dilution,,"72 h, 37 °C, compound alone",31 µM
CCc1cc(Nc2cc(=O)n(CCCCO)c(=O)[nH]2)ccc1C,Clostridioides difficile,agar dilution anaerobic,ATCC 4381,48 h,4 µg/mL
C[C@H]1COc2c(N3CCN(C)CC3)c(F)cc3c(=O)c(C(=O)O)cn1c23,Proteus vulgaris,agar dilution,ATCC 29905 susceptible,,≤ 0.03 µg/mL
CC(=O)NC[C@H]1CN(c2ccc(N3CCOCC3)c(F)c2)C(=O)O1,Staphylococcus aureus,broth microdilution,vancomycin-resistant VRS10,,2 µM
CC(C)(C)OCC1NC(=O)C(C(=O)NC(C(=O)NC2C(=O)N3C2SC(C)(C)C3C(=O)O)c2ccccc2)=C1O (stereo not drawn),Escherichia coli,broth microdilution,ATCC 25922 wild type,added: clavulanic acid 6 µg/mL,12.5 µg/mL
N=C(N)c1ccc(OCc2cccc(COc3ccc(C(=N)N)cc3)c2)cc1,Escherichia coli,,BW25113,"compound alone, vancomycin checkerboard",> 200 µg/mL
O=C(CO/N=c1\cc2n(-c3ccc(Cl)cc3)c3ccccc3nc-2cc1Nc1ccc(Cl)cc1)NCc1ccc2c(c1)CCO2,Neisseria meningitidis,bacterial growth,ATCC 13077,24 h,> 30 µM
O=c1[nH]c(NCc2ccc(Cl)c(Cl)c2)nc2ncn(CCCCCN3CCOCC3)c12,Clostridioides difficile,agar dilution anaerobic,ATCC 4381,48 h,2 µg/mL
CCOC(=O)CON,Nakaseomyces glabratus,,CG2,,32 µg/mL
CCOCCn1cnc2nc(NCc3ccc(Cl)c(Cl)c3)[nH]c(=O)c21,Clostridioides difficile,agar dilution anaerobic,ATCC 4381,48 h,2 µg/mL
N=C(N)c1ccc(OCc2cc(COc3ccc(C(=N)N)cc3)cc(-c3ccccc3)c2)cc1,Escherichia coli,,W3110,"in combination, checkerboard, added: rifampicin",6.25 µg/mL
O=c1[nH]c(NCc2ccc(Cl)c(Cl)c2)nc2ncn(CCN3CCOCC3)c12,Clostridioides difficile,agar dilution anaerobic,3588,48 h,0.5 µg/mL
CO/N=c1\cc2n(-c3ccc(Cl)cc3)c3ccccc3nc-2cc1Nc1ccc(Cl)cc1,Neisseria meningitidis,bacterial growth,ATCC 13077,24 h,> 30 µM
